Experimental data collected from several papers.
Protocols differ between the studies behind these lines. Numbers after ± are the reported error.

`CN(C(=O)c1ccn2ncc(-c3ccc(C(F)(F)F)cc3)c2c1)c1ccc(C#N)cn1` has an EC50 of 1.54 µM (Cryptosporidium parvum; cytopathic effect; HCT-8).
The EC50 of `CC(=O)CCC1C(=O)NC(C(C)C)C(=O)NC(Cc2cccc(O)c2)C(=O)N2CCCC(N2)C(=O)OC(C(C)=CC=CC(=O)N2CCCCO2)CC=CC=CC(O)C(C)C1O` (stereo not drawn) is reported as 0.058 ± 0.005 µM (hepatitis C virus genotype 1b; item: HCV RNA; Huh-7 replicon; 72 h).
The EC50 of `CNC(=O)CNc1cnc2ccc(-c3ccc(OC)c(OC)c3)cc2n1` is reported as 11.8 ± 1.89 µM (Cryptosporidium parvum; cytopathic effect; HCT-8).
`COc1ccccc1-c1n[nH]c2nc(N[C@H]3CC[C@H](NS(=O)(=O)CC(C)C)CC3)ncc12` has an EC50 of 0.0316 µM (Leishmania donovani; parasite growth; mouse; intracellular, amastigote).
`C[C@@H](O)[C@H](NC(=O)[C@H](Cc1ccc(O)cc1)NC(=O)[C@@H]1CCCN1C(=O)OCC1c2ccccc2-c2ccccc21)C(=O)N[C@@H](CCCNC(=N)N)C(=O)N[C@@H](CO)C(=O)NCC(=O)N1CCC[C@H]1C(=O)NCC(=O)N[C@@H](Cc1c[nH]c2ccccc12)C(=O)N[C@@H](CO)C(=O)N[C@@H](CO)C(=O)N[C@@H](Cc1c[nH]cn1)C(=O)O` has an EC50 of > 200 µg/mL (bacteriophage T1; phage inactivation, plaque count; 3 h, 37 °C, 50% phages deactivated).
`CNC(=O)c1ccc(-c2cnn3ccc(C(=O)N(C)c4ccc(C#N)cn4)cc23)cc1` has an EC50 of 0.113 ± 0.072 µM (Cryptosporidium parvum; cytopathic effect; HCT-8).
The EC50 of `Nc1ncnc2c1c(Cl)cn2[C@@H]1O[C@H](CO)[C@@H](O)[C@H]1O` is reported as 0.53 µM (Trypanosoma vivax; parasite growth, resazurin; 24 h).
The EC50 of `O=C1/C(=N\NC(=S)NN=Cc2cccs2)c2ccccc2N1Cc1ccccc1` is reported as > 20 µM (feline herpesvirus; viral cytopathogenicity; CRFK).
For `CC(=Nn1c(-c2ccccc2)nc2ccccc2c1=O)c1ccc(Cl)cc1`, the EC50 was > 100 µg/mL (feline herpesvirus; viral replication, MTS; CRFK).
With `CC(=O)CCC1C(=O)NC(C(C)C)C(=O)NC(Cc2cc(O)cc(F)c2)C(=O)N2CCCC(N2)C(=O)OC(C(C)=CC=CC(=O)N2CCCCO2)CC=CC=CC(O)C(C)C1O` (stereo not drawn) the EC50 was 0.033 ± 0.01 µM (hepatitis C virus genotype 1b; luciferase; Huh-5-2 replicon; 4 days).
`COC(=O)c1cn(Cc2ccc(F)cc2)cc(OC)c1=O` has an EC50 of > 50 µM (Human betaherpesvirus 5; viral replication, inhibitor; 7 days).
The EC50 of `Nc1ncnc2c1c(Br)cn2[C@@H]1O[C@H](CO)[C@@H](O)[C@H]1O` is reported as 0.74 µM (Trypanosoma vivax; parasite growth, resazurin; 24 h).
`COc1cn(Cc2ccc(F)cc2)cc(C(=O)NCc2ccc(F)cc2F)c1=O` gave an EC50 of > 50 µM (Human betaherpesvirus 5; viral replication, inhibitor; 7 days).
For `Cc1cn(C2CC(N(C)C)C(CO)O2)c(=O)[nH]c1=O` (stereo not drawn), the EC50 was > 0.37 µM (feline herpesvirus; viral replication; CRFK).
With `COc1ccccc1CNC(=O)CSc1c[nH]c2ccccc12` the EC50 was > 50 µM (human coronavirus NL63; viral cytopathic effect, MTS; LLC-MK2; 120 h).
With `CNC(=O)c1ccc(-c2cnn3ccc(C(=O)Nc4ccc(C#N)cn4)cc23)cc1` the EC50 was > 20 µM (Cryptosporidium parvum; cytopathic effect; HCT-8).
For `COc1ccc(-c2cnc3c(C#Cc4cccnc4)snc3c2)cc1OC`, the EC50 was 1.4 µM (dengue virus 2; viral replication).
For `C1CCCCCC2(CCCCC1)OOCCCOO2`, the EC50 was 9.5 µM (Dengue virus; viral replication, inhibitor, luciferase; BHK-21; 72 h, replicon).

A few entries again:
With `CNC(=O)c1ccc(-c2cnn3ccc(C(=O)Nc4ccc(C#N)cn4)cc23)cc1` the EC50 was > 20 µM (Cryptosporidium parvum; cytopathic effect; HCT-8).
For `COc1ccc(-c2cnc3c(C#Cc4cccnc4)snc3c2)cc1OC`, the EC50 was 1.4 µM (dengue virus 2; viral replication).
For `C1CCCCCC2(CCCCC1)OOCCCOO2`, the EC50 was 9.5 µM (Dengue virus; viral replication, inhibitor, luciferase; BHK-21; 72 h, replicon).
